# Published values of several laboratories.
# Target: Cytochrome P450 1A2 (CYP1A2, Homo sapiens, UniProt P05177)
# UniProt P05177, sequence (whole entry, looked up): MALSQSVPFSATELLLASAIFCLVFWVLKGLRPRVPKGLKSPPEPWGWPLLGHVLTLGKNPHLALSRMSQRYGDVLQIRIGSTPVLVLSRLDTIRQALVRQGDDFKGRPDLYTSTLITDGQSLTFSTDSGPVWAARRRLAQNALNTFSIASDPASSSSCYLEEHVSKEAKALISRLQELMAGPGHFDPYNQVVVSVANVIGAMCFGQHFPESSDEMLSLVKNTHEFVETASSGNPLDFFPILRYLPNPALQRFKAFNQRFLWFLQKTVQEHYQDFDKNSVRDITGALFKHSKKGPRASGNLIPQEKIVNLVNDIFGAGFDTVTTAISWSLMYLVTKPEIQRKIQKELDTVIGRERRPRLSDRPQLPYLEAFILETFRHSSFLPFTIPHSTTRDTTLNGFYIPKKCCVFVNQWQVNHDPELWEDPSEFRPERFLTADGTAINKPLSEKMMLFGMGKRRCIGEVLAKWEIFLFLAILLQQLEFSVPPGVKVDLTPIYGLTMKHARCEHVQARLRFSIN
# Action: inhibitor
Compound,test,system,setting,quantity,result
CNC(=O)O/N=C/C(C)(C)S(C)(=O)=O,,human liver microsomes,"2 µM, pH 7.4, together with: phenacetin",inhibition,1.41%
CC[C@@H]1CN2CCc3c([nH]c4cccc(OC)c34)[C@H]2C[C@@H]1/C(=C\OC)C(=O)OC,enzyme activity,"human, liver microsomes",,IC50,> 45 µM
O=c1cc(-c2ccccc2O)oc2ccccc12,enzyme activity,,,IC50,9.39 µM
C=C[C@H]1CN2CCc3c([nH]c4cccc(OC)c34)[C@@H]2C[C@@H]1/C(=C\OC)C(=O)OC,enzyme activity,"human, liver microsomes",,IC50,> 45 µM
O=S(=O)(O)C(F)(F)C(F)(F)C(F)(F)C(F)(F)C(F)(F)C(F)(F)C(F)(F)C(F)(F)F,"enzyme activity, fluorescence",,,IC50,25.7 µM
CC(C)(O)c1ccccc1CC[C@@H](SCC1(CC(=O)O)CC1)c1cccc(/C=C/c2ccc3ccc(Cl)cc3n2)c1,,human liver microsomes,"2 µM, pH 7.4, together with: phenacetin",inhibition,< 0%
C#CCOc1ccc2c(=O)cc(-c3ccccc3)oc2c1,enzyme activity,,,IC50,0.41 µM
C=CC(C)(C)c1cc(/C=C/C(=O)c2ccc(O)cc2)c(OC)cc1O,,,,IC50,< 20 µM
O=C1Cc2cc(CCN3CCN(c4nsc5ccccc45)CC3)c(Cl)cc2N1,,human liver microsomes,"2 µM, pH 7.4, together with: phenacetin",inhibition,< 0%
O=C(O)C(F)(OC(F)(F)C(F)(F)C(F)(F)F)C(F)(F)F (stereo not drawn),enzyme activity,Supersomes,together with: 7-methoxyresorufin substrate,IC50,> 100 µM
CSc1nc2cc(Cl)c(Oc3cccc(Cl)c3Cl)cc2[nH]1,,human liver microsomes,"2 µM, pH 7.4, together with: phenacetin",inhibition,68.2%
C#CCOc1ccc2oc(-c3ccccc3)cc(=O)c2c1,enzyme activity,,,IC50,0.71 µM

# Some of these lines once more:
Compound,test,system,setting,quantity,result
O=S(=O)(O)C(F)(F)C(F)(F)C(F)(F)C(F)(F)C(F)(F)C(F)(F)C(F)(F)C(F)(F)F,"enzyme activity, fluorescence",,,IC50,25.7 µM
